Measurements gathered from unrelated publications.
Several values in a cell are separate wells, animals, samples, runs or records.
Target: Macrophage-stimulating protein receptor (MST1R, Homo sapiens, UniProt Q04912)

| SMILES | test | conditions | how to read | measurement | result |
| --- | --- | --- | --- | --- | --- |
| C=CC(=O)Nc1cccc(-c2cnc3[nH]cc(C(=O)NC(C)(C)C)c3n2)c1 | kinase activity | 0.1 µM |  | inhibition | 18% and 19% |
| CCn1cc(C(=O)O)c(=O)c2c(N)c(F)c(NC3CCCCC3)cc21 | kinase activity | 0.1 µM, together with: ATP at Km |  | inhibition | -10.2% |
| CNC(=O)C[C@H](Cc1ccc(C#N)cc1)NC(=O)c1cc(-c2ccc(CN[C@H](C)c3ccc(C)cc3)o2)ccc1Cl | enzyme activity, inhibitor | 1 µM |  | activity vs control | 104% |
| Nc1ncc2c(n1)-c1c([nH]c3ccc(C4=CCOCC4)cc13)CCC2 | binding, competition with immobilised ligand | 1 µM |  | remaining binding | 85% |
| NC(=O)C[C@H]1CCc2sc3ncnc(O[C@H]4CC[C@H](N5CCOCC5)CC4)c3c21 | enzyme activity, inhibitor | 10 µM |  | inhibition | 3% |
| COc1c(Cl)cccc1Nc1c(-c2ccncc2C#C[C@@]2(C)CCCN2C(=O)/C=C/CN(C)C)[nH]c2c1C(=O)NCC2 | cell-free assay, competition with immobilised ligand | 3 µM |  | remaining binding | 99% |
| CC(C)=CC1OC(C)(C)C2C=C3C(=O)C(Cl)=CC(O)C3C3C(O)C4OC4C(=O)C132 (centres unmarked) | cell-free assay, competition with immobilised ligand | 10 µM |  | remaining binding | 95% |
| Cc1cccc(O[C@H]2CCC[C@@H](C(C)CNCc3ccncc3)C2)c1 (relative stereo) | cell-free assay | 1 µM |  | inhibition | 9% |
| O=C(Cc1ccc(OCc2ccccc2)cc1)NC1(C(=O)O)CCN(C(=O)c2ccc(-c3cccc(Cl)c3)cc2)CC1 | enzyme activity, inhibitor | 10 µM |  | activity vs control | 100% |
| O=C=[N][Ru-4]123([n]4c5ccc(O)cc5c5c6c(c7cc(F)c[n+]1c7c54)C(=O)NC6=O)[S+]1CC[S+]2CC[S+]3CC1 (centres unmarked) | enzyme activity | 100 nM, human enzyme, together with: 10 µM ATP | baseline: untreated | remaining activity | 108% |
| COc1ccc(NC(=O)Nc2ccc3c(c2)C(=O)N(C(C)CO)CC(C)C(CN(C)Cc2ccc4c(c2)OCO4)O3)cc1 (centres unmarked) | kinase activity, KinaseProfiler | 0.03 µM, species human | baseline: control | remaining activity | 94% |
| Nc1ncc(-c2cc(-c3cnn(CC(F)(F)F)c3)ncc2F)nc1C(=O)NC1CNCC(F)C1 (centres unmarked) | enzyme activity | 1 µM | baseline: DMSO control | remaining activity | 103% |
| C=CC(=O)N1CCc2ccc(-n3c(=O)ccc4cnc5ccc(-c6cnn(C)c6)cc5c43)cc21 | KINOMEscan | 1 µM | baseline: DMSO control | remaining binding | 100% |
| COc1cc(Nc2nccc(-c3cnn4nc(OC)ccc34)n2)cc(C(F)(F)F)c1 | binding, competition with immobilised ligand | 1 µM |  | remaining binding | 100% |

A few entries again:
| SMILES | test | conditions | how to read | measurement | result |
| --- | --- | --- | --- | --- | --- |
| CC(C)=CC1OC(C)(C)C2C=C3C(=O)C(Cl)=CC(O)C3C3C(O)C4OC4C(=O)C132 (centres unmarked) | cell-free assay, competition with immobilised ligand | 10 µM |  | remaining binding | 95% |
| Cc1cccc(O[C@H]2CCC[C@@H](C(C)CNCc3ccncc3)C2)c1 (relative stereo) | cell-free assay | 1 µM |  | inhibition | 9% |
